Assay results pooled from the literature.
Numbered parts are unrelated; each lists some results of a single study. Positions count from the first letter of the parent shown.

Sample 1
Target: ABI1, truncated, D143A, DHFR fusion (Arabidopsis thaliana)
Method: DHFR PCA, deep sequencing
Matrix: yeast
Setting: methotrexate growth selection, single substitutions
With: (+)-ABA 710 µM
Baseline: wild-type fitted maximum
Reading: higher = stronger binding
Starting sequence: PYL1, truncated, DHFR fusion (Arabidopsis thaliana); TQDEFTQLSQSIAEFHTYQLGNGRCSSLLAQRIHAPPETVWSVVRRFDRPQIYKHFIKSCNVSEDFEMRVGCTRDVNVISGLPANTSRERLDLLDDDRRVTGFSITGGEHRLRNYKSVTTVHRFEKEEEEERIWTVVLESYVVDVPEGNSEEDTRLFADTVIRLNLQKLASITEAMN; partner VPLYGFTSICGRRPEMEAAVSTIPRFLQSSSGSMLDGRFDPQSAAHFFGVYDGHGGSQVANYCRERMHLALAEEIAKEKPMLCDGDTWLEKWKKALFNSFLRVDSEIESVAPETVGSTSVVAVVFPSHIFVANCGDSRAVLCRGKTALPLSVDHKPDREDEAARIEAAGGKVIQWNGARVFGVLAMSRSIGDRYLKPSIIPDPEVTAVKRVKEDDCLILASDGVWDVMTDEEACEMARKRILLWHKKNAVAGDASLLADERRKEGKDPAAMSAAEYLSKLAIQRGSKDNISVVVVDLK
Substitution	relative binding score
S11M	97.7%
V145P	78.8%
H122Y	38.1%
C60L	76.7%
V40S	4.79%
A30M	108%
D159M	49.5%
A35K	62.7%
S42W	89.6%
P146I	49.9%
C72R	89%
G148K	90.4%
E147N	102%
F66S	99.7%
I12T	85.9%
D97N	110%
I172C	98.9%
L82C	85.4%
I172K	86.2%
E152K	100%
H34C	97.7%

Sample 2
Target: Sal-like protein 4, full length isoform B (SALL4, Homo sapiens, UniProt Q9UJQ4-2, residues 1-616)
Method: universal PBM
Form: double-stranded DNA, one strand shown
Matrix: in vitro
Tested at: not given
Setting: 8-mer, flanks averaged, mean of replicates
Reading: higher = stronger binding
Residues (chain): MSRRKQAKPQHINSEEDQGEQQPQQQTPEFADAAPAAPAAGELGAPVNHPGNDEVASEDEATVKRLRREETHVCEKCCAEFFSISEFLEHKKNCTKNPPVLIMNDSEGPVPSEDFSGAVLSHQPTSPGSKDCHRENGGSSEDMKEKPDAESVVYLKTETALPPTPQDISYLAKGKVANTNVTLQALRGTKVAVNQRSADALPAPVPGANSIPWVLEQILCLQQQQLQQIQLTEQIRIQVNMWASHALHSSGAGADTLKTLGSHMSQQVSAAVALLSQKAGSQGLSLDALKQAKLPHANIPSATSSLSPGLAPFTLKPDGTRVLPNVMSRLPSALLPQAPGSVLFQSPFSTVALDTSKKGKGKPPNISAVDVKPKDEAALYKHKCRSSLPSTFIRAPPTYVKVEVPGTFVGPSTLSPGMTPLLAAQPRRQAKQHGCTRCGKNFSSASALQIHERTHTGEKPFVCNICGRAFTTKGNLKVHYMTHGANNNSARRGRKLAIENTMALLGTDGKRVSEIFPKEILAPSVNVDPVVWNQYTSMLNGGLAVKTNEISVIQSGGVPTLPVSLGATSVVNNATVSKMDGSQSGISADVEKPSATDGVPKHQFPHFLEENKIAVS
Strand	E-score
CTCTACGC	-0.241
ACGTGCTC	-0.206
CCGTAGAA	-0.0903
ACACGCCA	-0.202
TCTGGGAA	-0.0631
CAGTAGTA	0.091
CCCCCCTC	-0.28
AATTCCGT	0.23
CTTAAGCA	0.0471
ATAGCCAG	-0.0588
CCAGGACG	-0.248
ACACCTAA	0.149
AAAGTCGC	0.0869
CAGAACAC	-0.0965
CGTGCCGC	-0.266
GTAGACGA	0.0382
AGCTGCCT	-0.317
GGTAGAAC	-0.158
TGAAACAA	0.254
AAGATCAC	0.0305
AAGACAAC	0.132
AAGGCACC	-0.25
CCTACCAG	-0.304
ACACTAGC	-0.0913
ACGTTTGG	0.139

Sample 3
Target: Histone acetyltransferase KAT6A, winged helix 1, GST fusion (KAT6A, Homo sapiens, UniProt Q92794, residues 1-85)
Method: protein binding microarray
Form: double-stranded DNA, one strand shown
Matrix: in vitro
Tested at: not given
Setting: 8-mer, flanks averaged, mean of 2 arrays, mostly near background
Baseline: not given
Reading: higher = stronger binding
Target sequence (chain): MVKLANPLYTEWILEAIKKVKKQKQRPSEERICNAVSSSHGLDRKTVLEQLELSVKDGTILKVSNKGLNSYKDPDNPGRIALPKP
Strand	E-score
AAACCCTT	0.0807
CTTCATCA	-0.166
GCTTTATA	0.0416
CTTATATC	-0.13
GATGTCAC	0.00751
ACCTTCCC	0.0181
ACCGAACA	-0.0749
TCGGCGCA	0.364
CTGTTCAA	-0.234
AAAACGCT	-0.0442
ATGTTGTC	-0.0251
AAACGAGT	-0.0829
CCTAGCAA	-0.189
AATGTCGT	-0.223
CACACCTA	0.0745
CTTTAGCA	-0.172
CGAACGAG	0.011
AAACGCAG	-0.0474
ACGGTACG	0.348
AACACCTC	-0.102
AGGAACTA	-0.165

Sample 4
Target: RNA binding protein fox-1 homolog 2, RRM domain, GST-SBP tag (RBFOX2, Homo sapiens, UniProt O43251-10, residues 100-194)
Method: RNA Bind-n-Seq
Form: RNA
Matrix: in vitro
Tested at: 365 nM
Setting: natural RNA segment, single round, ends assumed
Baseline: no-protein control
Reading: higher = stronger binding
Shared flanks, not repeated: GGGAGUUCUACAGUCCGACGAUC … UGGAAUUCUCGGGUGCCAA
Residues (chain): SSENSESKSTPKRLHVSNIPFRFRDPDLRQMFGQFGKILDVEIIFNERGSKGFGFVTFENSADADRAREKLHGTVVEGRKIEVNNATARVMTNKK
Strand	RBNS enrichment (R)
GAAACGUGUCCCUGGCCCAUAUUAAUCCCUCGUGUGUCCAUAAUUAGGGUCCACGCCCAUGUACCUGAAACAUUUGGAAGCCCCAUAAUUGUUCUAGUUAGAAAGGGUUC	0.229
UAAUGCUGUAACCCUUUAAUACAGUUCCUCAUGUUCUGGUGACCCCUCCCCCAACUAUAAAAUUAUUUUGUGGCUACUUCAUAACUGUAAUUUUGCUACUGUUAUGAAUC	0.555
GGUAGACAUUUCCUAAAGUUGAAGCAGUAGCUUCAUAGAGUCUUGGUUACUUUAUUUUUUUUAAUGCUUUACAUUUGAUACAACUAUUGAAGAUCAAUUUAAAAAUAACU	0.682
UGGGGUGGGUGGGGUUCUCUCCUCCCUCCCUCCCUCCUCCUGGGGUGGGAGGGCGCUCCUGUUCCCAUCUCUGUGUUCCCUGGAGGCAGGUAUCACAAAGCAUUUGUGAA	0.268
CUGUCUAAACACCAACCAUCUUCUCUUGGAAUGGGCCCCAGGCAAGGCUUGCAGCAAUAUAGCCUGGACCCAGAAAAGGGAAAACGAUAAGGAAAUUCUGUCUGGUAGGU	0.537
UUCACACAGUAUUUCUUUAGGAUGCUGUGAUGAUUUGAAUUACAAAUCCUACAGUCAAUAGCUAAAGACGAAACCUUCAUUUCAGAACUCUCAUGAAUAUUCUUUAAGUG	0.308
UGAUUGCUGUAGUUUCUUUCAUAGAAAGUAGCUGAUCUGAUGUAAUCUUUUACCUUUUAAACAACCAGGAUAGAGAACCUAUUGGAGUUUGCAUUGUUGAUGACAGGUUC	2.45
GAAACGCAGAGUCAAUCAGGUUUAUAAAGGAAGGCUGAGGGGAGAGAGGAGGCCUGGGGGCCUGGACGAAGAGGCCUAGGACCUGAAGAGACUCCAGCGAGUCUCGGGAA	0.54
UAUCCAAUCUUUUUUUUUUGUAUUUAAAGAUCACAGGUAGAUAGAUGUAAGACAUUUGAUCCCCUGUUGACUUACAAAAUUGUAAAUGGUAAAGCAGGCUAGAGUCUUAA	0.377
CCAAAGGAGAGUGCGUUGUCAUAGAAACCACAUAAAACUAUCCUUCCAGAGGCUUCACCACCUUGCACUGCUCUAUCUGGUUGGGGGUGGGCAGGAGAACCCCUCGCUUU	0.52
UGGCAGGAAAUAUCCCCUCAUGUCCCAGGGAAUUGCAGAUGGGUCUUCUAUACCCUUCUACCUGCCCUUAGAUCUCCAUUUUUAUCAAAUAGUACAUUGCAUUUUGAAGU	0.732
AUGAUCUGUUGUCUGGAGUAUAUGCUACAUGUUCAUUUACUGUACAAAAACCCAGUGCAGCUGAUGAUGCAAAGCAGUCUCUCUCUGUGUACAGUGCCCCACCUAUUUAA	0.351

Sample 5
Target: Ras GTPase-activating protein-binding protein 1, RRM domain (G3BP1, Homo sapiens, UniProt Q13283)
UniProt Q13283, sequence (whole entry, looked up): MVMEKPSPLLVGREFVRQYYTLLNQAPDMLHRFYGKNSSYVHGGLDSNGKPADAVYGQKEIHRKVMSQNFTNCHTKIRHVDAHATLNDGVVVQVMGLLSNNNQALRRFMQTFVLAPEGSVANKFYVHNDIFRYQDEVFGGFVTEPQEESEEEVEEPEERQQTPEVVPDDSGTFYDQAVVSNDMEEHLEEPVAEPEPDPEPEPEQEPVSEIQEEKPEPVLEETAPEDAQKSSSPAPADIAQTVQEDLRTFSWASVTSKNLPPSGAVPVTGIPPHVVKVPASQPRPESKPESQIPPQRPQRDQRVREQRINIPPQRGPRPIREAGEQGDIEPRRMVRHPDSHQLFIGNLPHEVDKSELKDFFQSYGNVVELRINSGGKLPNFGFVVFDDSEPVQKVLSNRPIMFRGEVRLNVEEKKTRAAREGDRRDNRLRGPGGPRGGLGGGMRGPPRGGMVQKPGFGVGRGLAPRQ
Method: RNA Bind-n-Seq
Form: RNA
Matrix: in vitro
Tested at: 1 µM
Setting: whole 134-nt RNA, ends assumed
With: 150 mM KCl
Baseline: input library
Reading: higher = stronger binding
Shared flanks, not repeated: GGGAGUUCUACAGUCCGACGAUC … UGGAAUUCUCGGGUGUCAAGG
Strand	log2 enrichment
AUUCUAUAAAUGGCAAGUAAGCCUGAAGUGAGGAUACUGCAAUUUUCGGAGAAAAGAACAGCAGCUCUUUAAGUGUUUGCAUUUUCUAUU	-0.27
CAAGUCCUGUGCUACACAUCGUAUGUACCGAAUCGUGUGUGUGUGUGUGUGUGUGUAAAGUAUUAUGUUACGCCGUUCGGAUCUGCACUU	-0.0905
UGGCCUUGGUGGCAUGCGGGGAGGAAGAGGUGGCCUCAUGGAUCGUGGUGGUCCCGGUGGAAUGUUCAGAGGUGGCCGUGGUGGAGACAG	0.5
AGUCCUGUGCUACACAUCGUAUGUACCGAAUCGGGAAAAAGGGUUUGGGUUUUUGGGAAAGUAUUAUGUUACGCCGUUCGGAUCUGCACU	0.24
UAACUUUAGAGGAGGAUCUGAUGGAUAUGGCAGUGGACGUGGAUUUGGCGAUGGCUAUAAUGGGUAUGGAGGAGGACCUGGAGGUGGCAA	-0.79
CAGAACGAUCGAUACAGAAACCACGCUGCCGCCACCACACCAUCACCAUCGACAGAACAGUCCUUAAUCCAGAAACCUGAAAUGAAGGAA	0.0595
UGUGCUACACAUCGUAUGUACCGAAUCGGGGCCCCCCCGGGGCCCCCCCGGGGCCCCCCCGGAAAGUAUUAUGUUACGCCGUUCGGAUCU	-0.489
GUCCUGUGCUACACAUCGUAUGUACCGAAUCGGAAAAAGGGAAAAAGGGGAAAAAGGGGAAAGUAUUAUGUUACGCCGUUCGGAUCUGCA	0.12
GUCCUGUGCUACACAUCGUAUGUACCGAAUCGGGGUUUUUUUGGGGAGGGGUUUGGGGAAAGUAUUAUGUUACGCCGUUCGGAUCUGCAC	0.851

Sample 6
Target: PABPC1L2, full length, GST fusion (mouse, UniProt A0ABA7IW68)
Method: RNAcompete
Form: RNA
Matrix: in vitro
Tested at: 20 nM
Setting: 7-mer, probes averaged, single round
Baseline: mean of 7-mers
Reading: higher = stronger binding
Construct (chain): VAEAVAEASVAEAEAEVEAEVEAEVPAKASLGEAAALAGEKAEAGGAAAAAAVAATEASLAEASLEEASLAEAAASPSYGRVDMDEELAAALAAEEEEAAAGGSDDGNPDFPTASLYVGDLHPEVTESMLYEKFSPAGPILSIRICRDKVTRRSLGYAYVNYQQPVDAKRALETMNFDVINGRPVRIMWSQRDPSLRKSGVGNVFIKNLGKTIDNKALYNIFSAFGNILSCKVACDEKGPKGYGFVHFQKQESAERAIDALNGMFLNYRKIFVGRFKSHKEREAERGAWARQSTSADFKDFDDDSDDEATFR
Strand	7-mer Z-score
GUCCUUU	-0.249
CAAAUAC	0.523
CCCGUAG	-0.26
GGCAUUA	0.162
ACCGUCA	-0.18
ACAUAAU	0.0442
CCUGAGC	-0.253
UGUUGGC	-0.306
CGAGACC	-0.0319
CCCACGG	-0.262
AGUCCCU	-0.289
UGAUUCG	-0.235
GUGGGCA	0.379
UAACUUU	-0.161
GUAGAGC	-0.121
UUAACAG	-0.0971
GAGACAU	0.00798
AGGAACA	0.285
GACGACA	0.00979

A few entries again (sample 1):
Substitution	relative binding score
G148K	90.4%
E152K	100%
F66S	99.7%
A30M	108%
D97N	110%
I172C	98.9%
V145P	78.8%
S11M	97.7%
H122Y	38.1%
I12T	85.9%
S42W	89.6%
V40S	4.79%
